Assay results gathered from unrelated publications.
Each numbered part is a random draw from the data of one study; scales do not carry over between parts. Substitutions count along the parent as printed.
Sequence of UniProt Q9UM73 (whole entry, looked up): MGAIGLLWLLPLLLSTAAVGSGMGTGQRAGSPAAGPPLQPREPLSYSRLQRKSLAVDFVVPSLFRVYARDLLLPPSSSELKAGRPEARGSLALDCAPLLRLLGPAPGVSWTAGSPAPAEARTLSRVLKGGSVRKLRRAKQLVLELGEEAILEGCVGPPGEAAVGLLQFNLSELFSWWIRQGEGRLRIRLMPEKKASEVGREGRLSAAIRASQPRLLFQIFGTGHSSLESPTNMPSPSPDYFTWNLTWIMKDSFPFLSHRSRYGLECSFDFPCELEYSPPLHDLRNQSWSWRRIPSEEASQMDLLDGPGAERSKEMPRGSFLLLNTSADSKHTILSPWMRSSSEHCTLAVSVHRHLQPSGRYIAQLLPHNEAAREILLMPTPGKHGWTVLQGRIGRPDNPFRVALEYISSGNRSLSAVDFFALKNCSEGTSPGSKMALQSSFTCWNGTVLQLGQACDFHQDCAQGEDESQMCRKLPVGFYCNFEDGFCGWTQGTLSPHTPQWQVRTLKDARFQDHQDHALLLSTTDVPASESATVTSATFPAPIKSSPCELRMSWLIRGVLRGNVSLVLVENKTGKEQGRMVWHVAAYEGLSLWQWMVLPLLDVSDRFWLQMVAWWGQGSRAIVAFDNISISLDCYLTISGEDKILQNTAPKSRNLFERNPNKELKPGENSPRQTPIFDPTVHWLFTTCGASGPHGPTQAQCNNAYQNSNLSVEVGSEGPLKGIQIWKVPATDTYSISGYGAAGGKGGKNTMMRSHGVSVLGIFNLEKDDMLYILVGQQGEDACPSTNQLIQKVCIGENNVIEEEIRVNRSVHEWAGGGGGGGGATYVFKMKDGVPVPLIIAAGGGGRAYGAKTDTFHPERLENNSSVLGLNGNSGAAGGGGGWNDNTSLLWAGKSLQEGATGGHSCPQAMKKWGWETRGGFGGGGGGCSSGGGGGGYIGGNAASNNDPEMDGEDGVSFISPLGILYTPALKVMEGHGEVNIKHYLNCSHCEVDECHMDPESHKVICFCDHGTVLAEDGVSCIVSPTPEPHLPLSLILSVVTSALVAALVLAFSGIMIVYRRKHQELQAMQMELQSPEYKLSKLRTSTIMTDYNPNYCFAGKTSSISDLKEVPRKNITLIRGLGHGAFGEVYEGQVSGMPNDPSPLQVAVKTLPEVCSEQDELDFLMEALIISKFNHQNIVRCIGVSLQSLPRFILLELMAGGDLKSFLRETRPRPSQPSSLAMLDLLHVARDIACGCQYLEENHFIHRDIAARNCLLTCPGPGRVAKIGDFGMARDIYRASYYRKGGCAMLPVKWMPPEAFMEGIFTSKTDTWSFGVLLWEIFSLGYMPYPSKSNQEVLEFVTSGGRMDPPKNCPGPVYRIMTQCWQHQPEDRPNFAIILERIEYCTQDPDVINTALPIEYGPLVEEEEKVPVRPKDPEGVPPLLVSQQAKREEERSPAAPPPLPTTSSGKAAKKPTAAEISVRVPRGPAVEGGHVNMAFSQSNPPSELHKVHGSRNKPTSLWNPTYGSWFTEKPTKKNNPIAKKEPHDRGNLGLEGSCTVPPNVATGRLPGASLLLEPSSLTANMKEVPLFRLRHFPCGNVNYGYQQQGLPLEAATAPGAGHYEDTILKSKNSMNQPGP

Block 1
Variant: K58C
Target: ABI1, truncated, D143A, DHFR fusion (Arabidopsis thaliana)
Technique: DHFR PCA, deep sequencing
Medium: yeast
Setting: methotrexate growth selection, single substitutions
Baseline: wild-type fitted maximum
Direction: higher = stronger binding
Parent: PYL1, truncated, DHFR fusion (Arabidopsis thaliana); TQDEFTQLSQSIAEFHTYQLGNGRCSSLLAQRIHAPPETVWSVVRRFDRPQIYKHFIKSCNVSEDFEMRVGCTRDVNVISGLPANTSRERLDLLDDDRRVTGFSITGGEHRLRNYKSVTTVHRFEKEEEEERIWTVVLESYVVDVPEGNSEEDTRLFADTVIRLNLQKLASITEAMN
setting	relative binding score [%]
together with: (+)-ABA 0.11 µM	2.52
together with: (+)-ABA 1.4 µM	2.62
together with: (+)-ABA 4.8 µM	30.8
together with: (+)-ABA 58 µM	60.5
together with: (+)-ABA 2500 µM	87.1
together with: (+)-ABA 0.0091 µM	3.02

Block 2
Target: TAR DNA-binding protein 43, full length, His tag (TARDBP, Homo sapiens, UniProt Q13148, residues 1-414)
Technique: RNA Bind-n-Seq
Molecule type: RNA
Medium: in vitro
Concentration: 20 nM
Setting: 6-mer, flanks averaged, single round
Together with: 150 mM LiCl
Baseline: input library
Direction: higher = stronger binding
Sequence	6-mer enrichment (R)
AGCGUA	0.923
AUAAGC	0.866
ACGGGC	0.939
CCCUCA	1.05
UAGCGC	0.946
AAUGGU	1.09
GCAGAG	1.02
GUAAAU	0.942

Block 3
Target: POU domain, class 6, transcription factor 1, POU and homeodomain (POU6F1, Homo sapiens, UniProt Q14863, residues 311-611)
Technique: protein-binding microarray
Molecule type: hairpin DNA
Medium: in vitro
Concentration: not given
Setting: whole hairpin DNA, median over replicate spots
Baseline: not given
Direction: higher = stronger binding
Constant ends, left off below: GAGGCC … GGCCTCACACTCTT
Construct (chain): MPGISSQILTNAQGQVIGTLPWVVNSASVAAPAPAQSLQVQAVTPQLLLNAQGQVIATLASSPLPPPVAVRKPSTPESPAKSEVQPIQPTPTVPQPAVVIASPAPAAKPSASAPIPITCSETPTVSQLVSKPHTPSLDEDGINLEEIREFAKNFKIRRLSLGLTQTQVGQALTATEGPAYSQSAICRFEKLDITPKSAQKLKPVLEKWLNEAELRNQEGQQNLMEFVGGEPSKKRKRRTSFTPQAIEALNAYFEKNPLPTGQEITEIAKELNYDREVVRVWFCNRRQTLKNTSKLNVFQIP
Sequence	median fluorescence
CGAATGAGGTGCCTCCTGGCACCTCATTCG (5mC at 7 35)	389 a.u.
ACAATGAGGTGCCTCCTGGCACCTCATTGT	496 a.u.
CTAATGAGGTGCCTCCTGGCACCTCATTAG	1490 a.u.
CGAATTAGGTGCCTCCTGGCACCTAATTCG (5mC at 35)	411 a.u.
CGAATGAGGTGCCTCCTGGCACCTCATTCG	394 a.u.
ATAGTGAGGTGCCTCCTGGCACCTCACTAT (5mC at 33)	374 a.u.
ATAATGAGCTGCCTCCTGGCAGCTCATTAT (5mC at 15)	6230 a.u.
ACGATGAGGTGCCTCCTGGCACCTCATCGT (5mC at 8 34)	333 a.u.

Single results of other studies
SMILES	target	test	setting	endpoint	result
O=C(NCc1ncc(C(F)(F)F)cc1Cl)c1ccc2c(c1)C1(CCS(=O)(=O)CC1)[C@@H](C1CC1)N2S(=O)(=O)c1ccc(F)cc1	ALK tyrosine kinase receptor (ALK, Homo sapiens, UniProt Q9UM73)	cell-free assay, competition with immobilised ligand	1 µM	remaining binding	73%

Repeated from above (block 3):
Sequence	median fluorescence
ACAATGAGGTGCCTCCTGGCACCTCATTGT	496 a.u.
CTAATGAGGTGCCTCCTGGCACCTCATTAG	1490 a.u.
CGAATTAGGTGCCTCCTGGCACCTAATTCG (5mC at 35)	411 a.u.
